Measurements collected from several papers.
Every numbered part comes from another study and shows a few of its results, in no order. Positions count from the first letter of the parent shown.

Block 1
Target: Sal-like protein 4, full length isoform A (SALL4, Homo sapiens, UniProt Q9UJQ4, residues 1-1053)
UniProt Q9UJQ4, sequence (whole entry, looked up): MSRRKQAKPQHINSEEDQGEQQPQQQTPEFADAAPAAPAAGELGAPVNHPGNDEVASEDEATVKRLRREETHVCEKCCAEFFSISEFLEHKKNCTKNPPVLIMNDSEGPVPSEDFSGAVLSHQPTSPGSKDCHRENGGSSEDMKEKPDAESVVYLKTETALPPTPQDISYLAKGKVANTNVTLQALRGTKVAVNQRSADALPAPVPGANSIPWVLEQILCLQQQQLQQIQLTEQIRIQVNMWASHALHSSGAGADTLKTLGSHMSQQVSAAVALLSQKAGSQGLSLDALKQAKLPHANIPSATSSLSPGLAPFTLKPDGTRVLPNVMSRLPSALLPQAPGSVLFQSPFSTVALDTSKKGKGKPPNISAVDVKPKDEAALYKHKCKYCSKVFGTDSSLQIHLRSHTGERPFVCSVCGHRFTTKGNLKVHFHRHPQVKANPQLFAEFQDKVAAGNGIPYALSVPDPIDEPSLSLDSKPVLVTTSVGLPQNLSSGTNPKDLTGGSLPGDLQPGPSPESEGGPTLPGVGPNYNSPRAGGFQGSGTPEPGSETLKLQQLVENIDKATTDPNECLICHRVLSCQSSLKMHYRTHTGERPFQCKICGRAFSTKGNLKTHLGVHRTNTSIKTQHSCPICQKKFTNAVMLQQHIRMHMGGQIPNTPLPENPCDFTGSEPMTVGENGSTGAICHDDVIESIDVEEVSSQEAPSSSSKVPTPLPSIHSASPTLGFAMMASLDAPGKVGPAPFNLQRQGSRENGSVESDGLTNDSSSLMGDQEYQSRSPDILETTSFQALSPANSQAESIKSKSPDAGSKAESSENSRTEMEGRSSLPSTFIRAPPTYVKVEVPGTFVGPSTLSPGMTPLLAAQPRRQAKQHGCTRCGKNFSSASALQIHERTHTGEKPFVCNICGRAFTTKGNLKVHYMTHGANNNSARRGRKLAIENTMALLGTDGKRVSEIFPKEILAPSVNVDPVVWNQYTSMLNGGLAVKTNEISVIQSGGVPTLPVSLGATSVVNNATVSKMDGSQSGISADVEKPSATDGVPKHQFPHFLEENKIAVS
Technique: universal PBM
Molecule type: double-stranded DNA, one strand shown
Matrix: in vitro
Tested at: 600 nM
Setting: 8-mer, flanks averaged, mean of replicates
Reading: higher = stronger binding
With `CGCATGGA` the E-score was -0.0786.
`ACGTGGCC` gave an E-score of -0.251.
With `CATGGAAC` the E-score was -0.127.
The E-score of `GGCTGCAC` is reported as -0.26.
For `CGCGAACC`, the E-score was -0.267.
`GCTGGTCA` has an E-score of -0.102.
`CTGTCAGA` has an E-score of -0.166.
`CGTCGCTC` gave an E-score of -0.22.
`AAAGAGCT` has an E-score of -0.0691.
With `TAGCGCCA` the E-score was -0.133.
With `GAGGTCCA` the E-score was -0.237.
With `CCCTCTGA` the E-score was -0.123.
With `CGAATGCC` the E-score was -0.169.
The E-score of `ACATCTAC` is reported as 0.174.
With `ACCACATA` the E-score was 0.207.
`CTACGATC` gave an E-score of -0.0375.
`ACTTACAA` has an E-score of 0.305.
The E-score of `GGCCAGCA` is reported as -0.256.
`ACTCTGCT` has an E-score of -0.0982.

Block 2
Target: RNA binding protein fox-1 homolog 2, RRM domain, GST-SBP tag (RBFOX2, Homo sapiens, UniProt O43251-10, residues 100-194)
Technique: RNA Bind-n-Seq
Molecule type: RNA
Matrix: in vitro
Tested at: 365 nM
Setting: natural RNA segment, single round, ends assumed
Reference: no-protein control
Reading: higher = stronger binding
Target sequence (chain): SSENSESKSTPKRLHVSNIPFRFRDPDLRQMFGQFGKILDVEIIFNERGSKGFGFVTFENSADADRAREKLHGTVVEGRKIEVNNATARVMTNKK
`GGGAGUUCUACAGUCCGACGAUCAAAAAAAUUGCAAGUGAUUAGAUUCAAUUAUUGAUUUAUUUACUUCUACUUUGUAUCCAUGACUUCUCCGAAUCAAACCACGGUAUAUGUUGUGACAAUAUCUAUGGCCAUGGAAUUCUCGGGUGCCAA` — result for “RBNS enrichment (R)”: 0.327.
`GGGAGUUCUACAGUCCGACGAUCAGUGAACAGGAAAGGGUCACGUGGUCCCAUGUUGCAACAGCCCCAACAUCACGCAUGUCAUUCACUGCCUUGCCACUCCAUCUCCCUCCGUGCUCCAGCCACCCCUGAGCUGGAAUUCUCGGGUGCCAA` — result for “RBNS enrichment (R)”: 4.59.
`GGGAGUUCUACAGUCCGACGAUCACAGCUAACGAGGCUGCCUCCAGCAUUUCCUGAUUUCCUCUGUGGUAAUAAAAGCUUUCUGUGCUUAGGUCUGGGUUAGGUUGUGAAUUUUGUCACGUAACGACAACUAAUGGAAUUCUCGGGUGCCAA` — result for “RBNS enrichment (R)”: 0.455.
`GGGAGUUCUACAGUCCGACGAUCUUUAACUAGACUAUAGGUAGUUCCUUAAGGUUGUUUGACCUGAAGUGGAGUUGGGUUUGGAAGCUGGUGCCCAGUUGGUGUGGAGUGUGUAGUUUUGUUAUGAAAGUUCUUGGAAUUCUCGGGUGCCAA` — result for “RBNS enrichment (R)”: 1.14.
`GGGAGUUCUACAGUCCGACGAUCACCACCCCUCGCCUCCCCUUCUCCAGGACUAUGAGCUCUUCGUGGAGGCUGUGGAACAAAACACGCUGCAGGAGUUCCUGAAGCUGGCUUGAGUCAAGCCUGUCCAGAGUUGGAAUUCUCGGGUGCCAA` — result for “RBNS enrichment (R)”: 0.348.
Under “RBNS enrichment (R)”, `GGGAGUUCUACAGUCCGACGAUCUUCCUCAAUGGGGGUUCAUGUUCUUGGACUGCGGGCCCUCAGUCCUUAACUGGAAAGUGACCGUCCACUGCCCCAUGGAGCCCAUCUGGACACAGCACAGCCCCAAAACCUGGAAUUCUCGGGUGCCAA` is recorded as 0.21.
For `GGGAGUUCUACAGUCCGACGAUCUGCAUAUUGGGGUUUUUGUUUGUUUGUUUUUUAAGCACUUACCAAGUGCCCUAUCCCUGGCAGGCCCCUAGUGGGGGUGUCGUGGCUUUUUUCAGAGUCUAUAAGCAUGCUGGAAUUCUCGGGUGCCAA`, “RBNS enrichment (R)” read 5.59.
For `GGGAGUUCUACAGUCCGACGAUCUCUCCCUGCUUUGCUGUAUGGUGACCCCUAAUCCGCUUCUCUGGGCUCAGAUCUGUCCAAGGGCGGAGGCAGGUGGUAUUGAAAAGGAAACGAAUCCUUGAGAGGAGCACUGGAAUUCUCGGGUGCCAA`, “RBNS enrichment (R)” read 0.584.
`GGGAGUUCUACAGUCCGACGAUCAGCCCUGGCCUUGCUCUGAUCAGCCUGCUCCUGGGGCAUGGGUGCUCCCGCUUCUGCUCUGCUUGGGCUCACAGGUAUGCACUGGCUGGGUGUGGAUGAGUAUUUUUCUGUGGAAUUCUCGGGUGCCAA` — result for “RBNS enrichment (R)”: 0.512.
`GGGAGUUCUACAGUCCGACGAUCUAAUCAAGAGGGGACAUUUUUCAUUAAGAGUUCAGUAAGACUUCUCCCACAUUAUUUACUAGAAAAUAUCAUCUUAGAAGAAACCCCAUGAAGGAAAAGAAUAGGGAAAAUGGAAUUCUCGGGUGCCAA` — result for “RBNS enrichment (R)”: 0.586.
`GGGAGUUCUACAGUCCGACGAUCGAGAAAGGGCUGGAGGAUGCCCCCCACAUACUGCCACUAUUUAUUGUGGGCCCUGGAGGCUCCCUGCAUUGGAGGAAGGGCAGCUCAGCAGCUCAGGACCCUUUCCCUUAUGGAAUUCUCGGGUGCCAA` — result for “RBNS enrichment (R)”: 1.25.
Under “RBNS enrichment (R)”, `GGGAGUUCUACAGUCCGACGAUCAUCUUCUAGCUAUAUAAAGAAACAAUCCAGCUGCUUAGAAGCUGUGACUAAUACAGAGUUGACUUUAAAAAAAAGCCCCUCCAAAAACUCAACUCAGCAUCUCUCCCCCUUGGAAUUCUCGGGUGCCAA` is recorded as 0.46.

Block 3
Target: CCNA1, cyclin fold, Cln2 fusion (human)
Technique: yeast growth competition, sequencing
Matrix: yeast
Setting: weak parent motif
Reference: not given
Reading: higher = stronger binding
Parent: CDC25A docking peptide (human); PPHRRRLLFACSP
`PPYRRRLLFACSP [H3Y]`: “normalised enrichment score” 0.464.
`PPERRRLLFACSP [H3E]`: “normalised enrichment score” 0.0588.
Under “normalised enrichment score”, `PPHRRRLLFACNP [S12N]` is recorded as 0.647.
For `PPHRRRLLFACSH [P13H]`, “normalised enrichment score” read 0.317.
For `PSHRRRLLFACSP [P2S]`, “normalised enrichment score” read 0.137.
Under “normalised enrichment score”, `PPHRRRLLFACSS [P13S]` is recorded as 0.23.
For `PPHRERLLFACSP [R5E]`, “normalised enrichment score” read 0.277.
`APHRRRLLFACSP [P1A]` — result for “normalised enrichment score”: 0.187.
Under “normalised enrichment score”, `PPHRRRLLGACSP [F9G]` is recorded as 0.524.
Under “normalised enrichment score”, `PPHRRRLLFQCSP [A10Q]` is recorded as 0.43.
Under “normalised enrichment score”, `PPHRRRLLFLCSP [A10L]` is recorded as 0.0582.
`PPHRRRLLFACSC [P13C]` — result for “normalised enrichment score”: 0.469.
`PPHRRRLLFFCSP [A10F]`: “normalised enrichment score” 0.22.
Under “normalised enrichment score”, `PNHRRRLLFACSP [P2N]` is recorded as 0.161.
`PPHRRRLLFPCSP [A10P]` — result for “normalised enrichment score”: 0.324.
Under “normalised enrichment score”, `PPHRRRLLFACEP [S12E]` is recorded as 0.329.
`PPHRRRLLFAASP [C11A]` — result for “normalised enrichment score”: 0.454.
Under “normalised enrichment score”, `PPHRRVLLFACSP [R6V]` is recorded as 0.35.

Block 4
Target: Ras GTPase-activating protein-binding protein 1, full length (G3BP1, Homo sapiens, UniProt Q13283)
UniProt Q13283, sequence (whole entry, looked up): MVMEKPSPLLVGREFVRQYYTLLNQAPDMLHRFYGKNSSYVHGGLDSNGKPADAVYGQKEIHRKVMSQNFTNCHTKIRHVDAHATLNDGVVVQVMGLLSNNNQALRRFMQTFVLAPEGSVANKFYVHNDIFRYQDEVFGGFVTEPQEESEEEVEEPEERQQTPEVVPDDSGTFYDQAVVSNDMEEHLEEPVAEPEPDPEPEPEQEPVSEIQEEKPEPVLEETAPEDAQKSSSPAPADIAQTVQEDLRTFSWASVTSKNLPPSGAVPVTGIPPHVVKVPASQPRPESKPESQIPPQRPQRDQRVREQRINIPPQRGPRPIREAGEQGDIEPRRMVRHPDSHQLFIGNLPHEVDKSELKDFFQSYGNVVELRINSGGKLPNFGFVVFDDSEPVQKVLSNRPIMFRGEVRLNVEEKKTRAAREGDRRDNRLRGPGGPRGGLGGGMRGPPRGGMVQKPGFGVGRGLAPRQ
Technique: RNA Bind-n-Seq
Molecule type: RNA
Matrix: in vitro
Tested at: 200 nM
Setting: whole 134-nt RNA, ends assumed
With: 150 mM KCl
Reference: input library
Reading: higher = stronger binding
`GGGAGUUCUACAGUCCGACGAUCACCAUGCAGGUGGGCAUCUUUGGGAAGUGGGGCAAGGGGGGGAUAGGGAGGGGGGUAACACUUUGGGAACUGGUGGUCCCAGGUCGUUUCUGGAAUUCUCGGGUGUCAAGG` gave a log2 enrichment of 1.01.
`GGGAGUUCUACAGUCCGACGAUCCCUCAAGUCCUGUGCUACACAUCGUAUGUACCGAAUCGGAGGAAAGGAAAGGAAAGUAUUAUGUUACGCCGUUCGGAUCUGCACUUCCAGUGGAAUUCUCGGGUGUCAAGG` has a log2 enrichment of -0.0975.
`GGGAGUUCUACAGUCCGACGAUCUGGUGGACCCGCAGCAGCUGGGCAUGUUCACGGAGGGCGAGCUGAUGUCGGUGGGUAUGGACACGUUCAUCCACCGCAUCGACUCCACCGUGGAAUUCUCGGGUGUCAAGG` has a log2 enrichment of -1.26.
The log2 enrichment of `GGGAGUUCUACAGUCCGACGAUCGCAGGAAGUAAAAACAAAUGGAAAUGCUUCGGAUAGUGGCAGGGGUGGGGGUUGCUAAAAAAAGGGUGGGAUGGGAGUGGGUAAAGAGUUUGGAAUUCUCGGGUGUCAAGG` is reported as 0.661.
The log2 enrichment of `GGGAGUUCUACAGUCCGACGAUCGCAGGAAGUAAAAACAAAUGGAAAUGCUUCGGAUAGUGGCAGGGAUGGGGGUUGCUAAGGAAAGGGUGGGAUGGGAGUGGGUAAAGAGUUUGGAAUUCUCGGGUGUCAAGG` is reported as 1.01.
The log2 enrichment of `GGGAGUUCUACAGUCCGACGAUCCCUGUGCUACACAUCGUAUGUACCGAAUCGGGGUUUUUUGGUUUUUUGGGGUUUUUUGGGGAAAGUAUUAUGUUACGCCGUUCGGAUCUGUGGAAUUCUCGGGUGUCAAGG` is reported as -0.644.
With `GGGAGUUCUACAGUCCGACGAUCUCCUGUGCUACACAUCGUAUGUACCGAAUCAAAUUUAAAUUUUUUUAAACCCCCCCAAAAAAGUAUUAUGUUACGCCGUUCGGAUCUGCAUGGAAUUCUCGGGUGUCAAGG` the log2 enrichment was 0.211.
`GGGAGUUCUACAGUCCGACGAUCUGGGAGGUGGAUUUUGUUUAUUUUUUUAGCUCAUUUCCAGGGGUGGGAAUUUUUUUUUAAUAUGUGUCAUGAAUAAAGUUGUUUUUCAAAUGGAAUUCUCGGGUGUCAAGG` has a log2 enrichment of 0.389.
For `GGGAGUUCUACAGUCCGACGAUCGCAGGAAGUAAAAACAAAUAAAAAUGCUUCGGAUAGUGGCAGGGGUGGGGGUUGCUAAGGAAAGGGUGGGAUGGGAGUGGGUAAAGAGUUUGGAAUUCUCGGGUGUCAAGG`, the log2 enrichment was 1.04.
For `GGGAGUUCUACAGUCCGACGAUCUUUCAAAGCCAAAGGGCCUUGUGACGCCCCUCUUGCCCACCUCCCUCCACACCGUGUCCUCCCCUAUAUGACAAUCAAUGUGACCUCUCUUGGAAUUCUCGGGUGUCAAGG`, the log2 enrichment was 0.434.

Excerpt of the above (block 4):
The log2 enrichment of `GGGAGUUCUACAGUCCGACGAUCGCAGGAAGUAAAAACAAAUGGAAAUGCUUCGGAUAGUGGCAGGGAUGGGGGUUGCUAAGGAAAGGGUGGGAUGGGAGUGGGUAAAGAGUUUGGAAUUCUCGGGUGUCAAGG` is reported as 1.01.
The log2 enrichment of `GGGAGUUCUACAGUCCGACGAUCCCUGUGCUACACAUCGUAUGUACCGAAUCGGGGUUUUUUGGUUUUUUGGGGUUUUUUGGGGAAAGUAUUAUGUUACGCCGUUCGGAUCUGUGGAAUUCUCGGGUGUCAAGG` is reported as -0.644.
With `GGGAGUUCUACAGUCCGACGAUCUCCUGUGCUACACAUCGUAUGUACCGAAUCAAAUUUAAAUUUUUUUAAACCCCCCCAAAAAAGUAUUAUGUUACGCCGUUCGGAUCUGCAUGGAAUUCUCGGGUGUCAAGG` the log2 enrichment was 0.211.
